# Assay results of several laboratories.
# Every numbered part comes from another study and shows a few of its results, in no order. Several values in a cell are separate wells, animals, samples, runs or records.
# Chain of UniProt Q99640 (whole entry, looked up): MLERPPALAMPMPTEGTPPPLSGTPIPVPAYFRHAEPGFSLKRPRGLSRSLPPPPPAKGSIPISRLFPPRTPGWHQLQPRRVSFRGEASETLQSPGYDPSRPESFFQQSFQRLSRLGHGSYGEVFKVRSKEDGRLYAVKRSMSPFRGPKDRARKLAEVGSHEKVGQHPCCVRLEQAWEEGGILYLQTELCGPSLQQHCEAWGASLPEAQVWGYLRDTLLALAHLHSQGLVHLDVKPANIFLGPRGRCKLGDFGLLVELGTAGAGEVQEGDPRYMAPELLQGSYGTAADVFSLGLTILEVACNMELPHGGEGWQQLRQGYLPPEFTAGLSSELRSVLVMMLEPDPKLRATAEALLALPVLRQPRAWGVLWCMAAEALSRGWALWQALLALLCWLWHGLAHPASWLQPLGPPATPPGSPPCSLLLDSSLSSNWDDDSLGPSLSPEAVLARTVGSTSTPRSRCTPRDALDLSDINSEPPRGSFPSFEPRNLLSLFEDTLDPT
# Chain of UniProt Q16512 (whole entry, looked up): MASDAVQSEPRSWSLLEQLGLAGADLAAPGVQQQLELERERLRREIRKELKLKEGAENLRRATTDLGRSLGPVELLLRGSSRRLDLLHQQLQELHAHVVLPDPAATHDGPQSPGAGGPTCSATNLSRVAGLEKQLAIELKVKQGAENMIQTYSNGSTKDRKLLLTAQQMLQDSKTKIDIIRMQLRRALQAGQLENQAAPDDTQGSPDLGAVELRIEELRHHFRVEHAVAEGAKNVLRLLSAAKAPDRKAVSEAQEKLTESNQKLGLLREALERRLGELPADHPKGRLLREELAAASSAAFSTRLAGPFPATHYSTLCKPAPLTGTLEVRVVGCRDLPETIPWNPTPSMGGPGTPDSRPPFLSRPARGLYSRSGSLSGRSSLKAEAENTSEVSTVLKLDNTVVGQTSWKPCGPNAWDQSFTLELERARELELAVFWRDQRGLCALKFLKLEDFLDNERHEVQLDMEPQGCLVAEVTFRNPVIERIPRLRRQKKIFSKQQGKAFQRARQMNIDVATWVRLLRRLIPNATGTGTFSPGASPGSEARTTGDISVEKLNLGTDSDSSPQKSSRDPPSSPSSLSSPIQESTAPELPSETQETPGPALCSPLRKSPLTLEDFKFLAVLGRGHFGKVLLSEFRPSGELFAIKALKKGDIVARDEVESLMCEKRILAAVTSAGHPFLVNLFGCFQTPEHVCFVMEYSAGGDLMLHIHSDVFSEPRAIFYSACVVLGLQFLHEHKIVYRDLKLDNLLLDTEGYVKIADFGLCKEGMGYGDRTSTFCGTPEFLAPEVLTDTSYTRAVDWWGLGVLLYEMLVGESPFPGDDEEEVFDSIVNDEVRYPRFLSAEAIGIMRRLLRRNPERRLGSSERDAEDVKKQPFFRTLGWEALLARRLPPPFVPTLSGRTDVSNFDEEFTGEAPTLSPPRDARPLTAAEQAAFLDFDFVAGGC
# Chain of UniProt O96017 (whole entry, looked up): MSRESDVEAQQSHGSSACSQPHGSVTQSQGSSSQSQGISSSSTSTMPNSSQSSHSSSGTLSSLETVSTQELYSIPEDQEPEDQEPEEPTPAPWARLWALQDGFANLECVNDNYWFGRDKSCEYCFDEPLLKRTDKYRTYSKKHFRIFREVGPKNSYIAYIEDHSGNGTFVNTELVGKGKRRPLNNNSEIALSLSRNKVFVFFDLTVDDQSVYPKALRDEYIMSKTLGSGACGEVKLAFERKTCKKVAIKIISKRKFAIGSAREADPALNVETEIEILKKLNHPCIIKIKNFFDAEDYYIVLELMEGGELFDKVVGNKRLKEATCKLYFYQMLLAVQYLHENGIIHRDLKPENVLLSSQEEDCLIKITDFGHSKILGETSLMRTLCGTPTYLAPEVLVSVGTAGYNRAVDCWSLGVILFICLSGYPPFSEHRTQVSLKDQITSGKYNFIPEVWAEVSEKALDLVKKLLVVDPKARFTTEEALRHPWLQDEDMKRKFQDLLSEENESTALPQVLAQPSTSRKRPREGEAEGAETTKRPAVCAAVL
# Chain of UniProt Q14289 (whole entry, looked up): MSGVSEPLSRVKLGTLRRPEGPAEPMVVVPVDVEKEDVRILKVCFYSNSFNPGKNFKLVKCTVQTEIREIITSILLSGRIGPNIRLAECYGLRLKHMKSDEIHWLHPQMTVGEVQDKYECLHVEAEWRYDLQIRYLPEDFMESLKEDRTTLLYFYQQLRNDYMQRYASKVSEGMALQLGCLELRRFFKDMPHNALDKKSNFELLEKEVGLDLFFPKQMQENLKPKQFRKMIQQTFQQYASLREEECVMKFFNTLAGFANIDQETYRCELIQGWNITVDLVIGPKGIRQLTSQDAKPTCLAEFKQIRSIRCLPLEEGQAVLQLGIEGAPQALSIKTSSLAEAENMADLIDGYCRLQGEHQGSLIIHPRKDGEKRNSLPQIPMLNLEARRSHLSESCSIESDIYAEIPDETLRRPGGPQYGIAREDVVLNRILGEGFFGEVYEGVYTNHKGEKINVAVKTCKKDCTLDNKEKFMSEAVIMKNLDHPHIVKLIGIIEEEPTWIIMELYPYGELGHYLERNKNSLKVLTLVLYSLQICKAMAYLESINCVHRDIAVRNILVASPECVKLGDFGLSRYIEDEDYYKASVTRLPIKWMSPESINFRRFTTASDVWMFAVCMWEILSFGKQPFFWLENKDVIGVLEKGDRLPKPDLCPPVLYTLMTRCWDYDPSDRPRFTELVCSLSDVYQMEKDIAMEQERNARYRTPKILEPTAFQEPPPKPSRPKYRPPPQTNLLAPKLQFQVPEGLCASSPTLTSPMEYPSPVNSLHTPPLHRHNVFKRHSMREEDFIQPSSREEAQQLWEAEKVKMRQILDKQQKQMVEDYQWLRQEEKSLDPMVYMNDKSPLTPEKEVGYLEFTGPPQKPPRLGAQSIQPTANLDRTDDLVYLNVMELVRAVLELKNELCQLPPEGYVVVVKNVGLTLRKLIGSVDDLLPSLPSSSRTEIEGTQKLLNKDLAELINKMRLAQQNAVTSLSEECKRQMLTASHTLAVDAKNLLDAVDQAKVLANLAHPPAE
# Chain of UniProt O15264 (whole entry, looked up): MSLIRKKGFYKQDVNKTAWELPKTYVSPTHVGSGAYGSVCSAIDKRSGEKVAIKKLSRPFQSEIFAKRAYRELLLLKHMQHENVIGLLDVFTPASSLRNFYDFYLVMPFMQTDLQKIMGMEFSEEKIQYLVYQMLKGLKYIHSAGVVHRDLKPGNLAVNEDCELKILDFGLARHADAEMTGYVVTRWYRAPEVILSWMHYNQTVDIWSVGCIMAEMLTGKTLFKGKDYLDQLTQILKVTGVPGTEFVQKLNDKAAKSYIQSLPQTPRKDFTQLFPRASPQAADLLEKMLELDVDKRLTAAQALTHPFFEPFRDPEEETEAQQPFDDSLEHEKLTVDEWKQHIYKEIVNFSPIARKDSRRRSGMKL

# Study 1 — observed: thermal unfolding; technique: differential scanning fluorimetry; tested at: 5.5 µM; reading: higher = more unfolded
# SMILES: C[C@@H]1CN(c2ccc(-c3cc(C(=O)NCCOCCOCCOCCOCCNC(=O)Cn4cc(-c5[nH]cc(C(=O)N[C@@H](CC(N)=O)c6ccc(F)c(Cl)c6)c5-c5ccc(Cl)cc5F)cn4)ccc3F)cc2NC(=O)c2c[nH]c(=O)cc2C(F)(F)F)C[C@H](C)N1C
# WDR5: WD repeat-containing protein 5 (WDR5, Homo sapiens, UniProt P61964)
# DCAF1: DDB1- and CUL4-associated factor 1 (DCAF1, Homo sapiens, UniProt Q9Y4B6)
# Chain of UniProt Q9Y4B6 (whole entry, looked up): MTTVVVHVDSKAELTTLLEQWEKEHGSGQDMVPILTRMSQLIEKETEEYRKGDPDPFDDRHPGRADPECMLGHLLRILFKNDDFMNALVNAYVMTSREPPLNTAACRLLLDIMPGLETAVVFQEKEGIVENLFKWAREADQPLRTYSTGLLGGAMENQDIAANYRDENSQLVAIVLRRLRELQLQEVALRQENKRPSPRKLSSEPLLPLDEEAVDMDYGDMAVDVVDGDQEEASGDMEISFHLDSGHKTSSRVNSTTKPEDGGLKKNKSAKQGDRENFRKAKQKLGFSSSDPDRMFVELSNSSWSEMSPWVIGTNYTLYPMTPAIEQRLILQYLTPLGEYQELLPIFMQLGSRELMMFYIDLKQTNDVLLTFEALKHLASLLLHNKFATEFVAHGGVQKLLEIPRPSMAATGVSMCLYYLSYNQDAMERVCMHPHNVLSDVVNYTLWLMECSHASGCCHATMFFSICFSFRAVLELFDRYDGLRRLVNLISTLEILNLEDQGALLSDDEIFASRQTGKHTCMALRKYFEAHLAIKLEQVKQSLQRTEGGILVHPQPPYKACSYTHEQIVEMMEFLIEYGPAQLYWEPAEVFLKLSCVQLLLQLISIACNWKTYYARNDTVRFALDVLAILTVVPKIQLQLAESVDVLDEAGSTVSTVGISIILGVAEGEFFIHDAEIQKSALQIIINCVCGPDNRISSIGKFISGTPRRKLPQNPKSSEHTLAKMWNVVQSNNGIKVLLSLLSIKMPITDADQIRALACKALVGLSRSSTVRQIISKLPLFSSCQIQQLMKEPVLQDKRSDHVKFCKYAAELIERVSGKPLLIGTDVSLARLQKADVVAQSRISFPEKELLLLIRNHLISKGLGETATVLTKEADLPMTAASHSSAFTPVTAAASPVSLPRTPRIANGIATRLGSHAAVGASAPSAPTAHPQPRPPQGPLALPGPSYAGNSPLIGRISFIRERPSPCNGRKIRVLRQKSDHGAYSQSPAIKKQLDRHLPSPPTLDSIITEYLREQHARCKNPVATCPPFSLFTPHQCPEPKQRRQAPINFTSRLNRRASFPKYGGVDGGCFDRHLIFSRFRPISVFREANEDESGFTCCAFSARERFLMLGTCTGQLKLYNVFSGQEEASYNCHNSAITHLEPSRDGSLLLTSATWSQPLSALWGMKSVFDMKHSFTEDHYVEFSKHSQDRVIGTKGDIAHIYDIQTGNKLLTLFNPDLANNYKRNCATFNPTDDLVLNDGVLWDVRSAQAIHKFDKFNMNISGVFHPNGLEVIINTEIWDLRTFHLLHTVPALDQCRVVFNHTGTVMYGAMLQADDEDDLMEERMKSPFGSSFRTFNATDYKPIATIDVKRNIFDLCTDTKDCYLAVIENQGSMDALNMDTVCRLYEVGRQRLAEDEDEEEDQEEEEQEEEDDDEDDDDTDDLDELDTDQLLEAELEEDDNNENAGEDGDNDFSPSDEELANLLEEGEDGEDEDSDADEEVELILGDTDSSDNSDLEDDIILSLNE
target,temperature,SYPRO Orange fluorescence [a.u.]
WDR5,51.2 °C,14400
DCAF1,26.4 °C,7650
WDR5,33.6 °C,14400
DCAF1,47.2 °C,13300
WDR5,78.61 °C,19000
DCAF1,52.01 °C,15800
WDR5,45.6 °C,14300
DCAF1,82.21 °C,42400
WDR5,94.81 °C,38100
WDR5,29.6 °C,15000
WDR5,80.81 °C,25900

# Study 2 — tested at: 1 µM
# Structure (SMILES): CC[C@@]1(c2cccc(-c3c(F)cncc3OC)c2)C2=C(Nc3n[nH]cc31)[C@H](F)C(C)(C)CC2=O (single isomer, unassigned)
target,observed,technique,baseline,remaining binding [%]
"Tyrosine-protein kinase JAK2, JH1 (JAK2, Homo sapiens, UniProt O60674)",binding,competition with immobilised ligand,,82
"MKNK1 (Homo sapiens, UniProt Q9BUB5)",binding,competition with immobilised ligand,,65
"PTK6 (Homo sapiens, UniProt Q13882)",kinase binding,KINOMEscan,DMSO control,100
"MYLK4 (Homo sapiens, UniProt Q86YV6)",binding,competition with immobilised ligand,,100
"EGFR (Homo sapiens, UniProt P00533, G719S)",kinase binding,KINOMEscan,DMSO control,88
"PRKACA (Homo sapiens, UniProt P17612)",kinase binding,KINOMEscan,DMSO control,87
"PRKD3 (Homo sapiens, UniProt O94806)",kinase binding,KINOMEscan,DMSO control,76
"PKN1 (Homo sapiens, UniProt Q16512)",kinase binding,KINOMEscan,DMSO control,100
"MAP3K7 (Homo sapiens, UniProt O43318)",binding,competition with immobilised ligand,,31
"MYLK3 (Homo sapiens, UniProt Q32MK0)",kinase binding,KINOMEscan,DMSO control,83
"PDGFRB (Homo sapiens, UniProt P09619)",kinase binding,KINOMEscan,DMSO control,100
"EPHA3 (Homo sapiens, UniProt P29320)",binding,competition with immobilised ligand,,70
"ACVR2B (Homo sapiens, UniProt Q13705)",binding,competition with immobilised ligand,,80
"Ribosomal protein S6 kinase alpha-3, N-terminal kinase domain (RPS6KA3, Homo sapiens, UniProt P51812)",binding,competition with immobilised ligand,,82
"CSK (Homo sapiens, UniProt P41240)",kinase binding,KINOMEscan,DMSO control,96

# Study 3
# SMILES: Cc1ccc(O)c(C)c1-c1cnc2[nH]c(-c3cnc(N4CCC5(CC4)CC(N4CCN(c6ccc(N[C@H]7CCC(=O)NC7=O)cc6F)CC4)CO5)nc3)cc2c1C#N (single isomer, unassigned)
tested on,assay,test system,setting,inhibition
"PKMYT1 (Homo sapiens, UniProt Q99640)",,,1 µM,97.1%
HCC1569,"CDK1 phosphorylation, Jess capillary immunoassay, item: CDK1 phospho-Thr14",,"1 nM, 24 h",14.4%
,"automated immunoblotting, item: CDK1 phospho-Thr14","mouse, HCC1569 xenograft, tumour","dose not given, 144 h",25.6% and 40.3% and 63.2% and 51.7% and 23.7% and 53.6%
"PKMYT1 (Homo sapiens, UniProt Q99640)",,,1.111 µM,99%
KLE,cell proliferation,,13.72 nM,-4.13% and -2.54% and -3.69%
NCI-H1568,cell proliferation,,13.72 nM,4.58% and -0.28% and 4.72%
PKMYT1,KINOMEscan,,1000 nM,100%
NCI-H1568,cell growth,,1111.11 nM,40.4%
NCI-H1568,cell proliferation,,3333.33 nM,79.9% and 78.5%
NCI-H1568,cell proliferation,,1111.11 nM,39.3% and 37.3%
"PKMYT1 (Homo sapiens, UniProt Q99640)",,,1111.11 nM,101% and 98.6%
"PKMYT1 (Homo sapiens, UniProt Q99640)","binding, HTRF",,41.15 nM,94.7% and 93%

# Study 4 — observed: kinase activity
# SMILES: CN(C1COC1)C(C)(C)/C=C(\C#N)C(=O)N1CCC[C@H]1Cn1nc(-c2ccc(Oc3ccccc3)cc2F)c2c(N)ncnc21
target,tested at,inhibition [%]
"PAK3 (Homo sapiens, UniProt O75914)",1 µM,-4
"PRKD1 (Homo sapiens, UniProt Q15139)",0.1 µM,1
"AKT1 (Homo sapiens, UniProt P31749)",1 µM,0
"PTK2B (Homo sapiens, UniProt Q14289)",1 µM,3
"Cyclin-dependent kinase 3, with cyclin E (CDK3, Homo sapiens, UniProt Q00526)",1 µM,-8
"CSF1R (Homo sapiens, UniProt P07333)",0.1 µM,0
"EPHA2 (Homo sapiens, UniProt P29317)",0.1 µM,2
"PIK3CG (Homo sapiens, UniProt P48736)",1 µM,-8
"CHEK2 (Homo sapiens, UniProt O96017)",0.1 µM,4
"PLK3 (Homo sapiens, UniProt Q9H4B4)",1 µM,13
"MAPK14 (Homo sapiens, UniProt Q16539)",0.1 µM,4
"MAPK13 (Homo sapiens, UniProt O15264)",0.1 µM,1
"MAPK3 (Homo sapiens, UniProt P27361)",0.1 µM,-3

# Excerpt of the above (study 1):
target,temperature,SYPRO Orange fluorescence [a.u.]
DCAF1,26.4 °C,7650
WDR5,33.6 °C,14400
DCAF1,47.2 °C,13300
WDR5,78.61 °C,19000
DCAF1,52.01 °C,15800
